{"data": "Published values of several laboratories", "note": "A part holds a random share of what one study measured.", "chain of UniProt Q92985 (whole entry, unmodified, looked up)": "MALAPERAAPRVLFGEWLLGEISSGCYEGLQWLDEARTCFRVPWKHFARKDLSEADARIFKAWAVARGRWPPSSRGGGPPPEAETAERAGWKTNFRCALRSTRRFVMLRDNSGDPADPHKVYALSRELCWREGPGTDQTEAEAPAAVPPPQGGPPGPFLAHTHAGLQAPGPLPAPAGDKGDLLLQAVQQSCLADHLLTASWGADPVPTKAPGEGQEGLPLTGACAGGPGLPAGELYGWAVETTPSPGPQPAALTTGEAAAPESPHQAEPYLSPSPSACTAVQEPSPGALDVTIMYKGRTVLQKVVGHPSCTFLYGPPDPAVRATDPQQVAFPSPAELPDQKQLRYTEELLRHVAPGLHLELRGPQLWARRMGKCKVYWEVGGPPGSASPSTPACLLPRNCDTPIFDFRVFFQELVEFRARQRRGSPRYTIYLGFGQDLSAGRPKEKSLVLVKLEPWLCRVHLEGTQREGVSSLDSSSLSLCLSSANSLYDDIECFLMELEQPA"}
{"data": "Study 1", "target": "Prothrombin, mature alpha-thrombin (F2, Homo sapiens, UniProt P00734)", "technique": "aptamer microarray, sandwich", "molecule type": "DNA with 2'F-ANA", "matrix": "in vitro", "concentration": "200 nM", "notes": "whole 15-mer aptamer, many near background", "added": "Cy3 exosite-II aptamer, 400 nM", "direction": "higher = stronger binding"}
{"Sequence": "GGTTGGTGTGGTTGG (2'F-ANA at 3 4 5 8 10 13)", "mean fluorescence intensity": "50.1 a.u."}
{"Sequence": "GGTTGGTGTGGTTGG (2'F-ANA at 7 9 13 14)", "mean fluorescence intensity": "201 a.u."}
{"Sequence": "GGTTGGTGTGGTTGG (2'F-ANA at 1 8 9 10 11 13 14 15)", "mean fluorescence intensity": "49.5 a.u."}
{"data": "Single results of other studies"}
{"Substance": "GCCTAGCACGACGATTTCAGTATCGCGACGTGCTAGGTCTTGATTCGCTTGACGCTGCTG", "target": "Interferon regulatory factor 7, full length, phosphomimetic (IRF7, Homo sapiens, UniProt Q92985, residues 1-503, S471D/S472D/S475D/S476D/S477D/S483D/S484D/S487D)", "test": "protein-binding microarray", "system": "double-stranded DNA, one strand shown, in vitro", "conditions": "2200 nM top, 60-bp whole probe, added: salmon DNA 0.4 mg/ml", "how to read": "relative to: random background probes, higher = stronger binding", "quantity": "fitted relative affinity", "result": "0.998 z-score"}
{"Substance": "AGCGTTAA", "target": "Sal-like protein 4, full length isoform B (SALL4, Homo sapiens, UniProt Q9UJQ4-2, residues 1-616)", "test": "universal PBM", "system": "double-stranded DNA, one strand shown, in vitro", "conditions": "not given, 8-mer, flanks averaged, mean of replicates", "how to read": "higher = stronger binding", "quantity": "E-score", "result": 0.0767}
{"Substance": "GCCTAGCACGACGGTATCGGGTTTCGGGTCGTGCTAGTCTTGATTCGCTTGACGCTGCTG", "target": "Interferon regulatory factor 5, full length, phosphomimetic (IRF5, Homo sapiens, UniProt Q13568-2, residues 1-514, K96S/S451D/S453D/S456D/S462D)", "test": "protein-binding microarray", "system": "double-stranded DNA, one strand shown, in vitro", "conditions": "250 nM, 60-bp whole probe, added: salmon DNA 0.4 mg/ml", "how to read": "relative to: random background probes, higher = stronger binding", "quantity": "log fluorescence", "result": "5.43 z-score"}
{"Substance": "PhoQ, residues 284 288 289 292 302 303 AGCYAI", "target": "PhoP, residues 12 14 15 18 19 FWNTL (Escherichia coli, UniProt P23836)", "test": "Sort-seq, measured: YFP reporter", "system": "E. coli", "conditions": "PhoQ-PhoP variant library, added: 10 µM Mg2+", "how to read": "relative to: high Mg2+ state, higher = stronger signaling", "quantity": "fold induction", "result": 2.82}
{"Substance": "GTGGGAGA", "target": "Histone acetyltransferase KAT6A, winged helix 1, GST fusion (KAT6A, Homo sapiens, UniProt Q92794, residues 1-85)", "test": "protein binding microarray", "system": "double-stranded DNA, one strand shown, in vitro", "conditions": "not given, 8-mer, flanks averaged, mean of 2 arrays, mostly near background", "how to read": "relative to: not given, higher = stronger binding", "quantity": "E-score", "result": -0.226}
{"note": "A few entries again (single results of other studies):"}
{"Substance": "GTGGGAGA", "target": "Histone acetyltransferase KAT6A, winged helix 1, GST fusion (KAT6A, Homo sapiens, UniProt Q92794, residues 1-85)", "test": "protein binding microarray", "system": "double-stranded DNA, one strand shown, in vitro", "conditions": "not given, 8-mer, flanks averaged, mean of 2 arrays, mostly near background", "how to read": "relative to: not given, higher = stronger binding", "quantity": "E-score", "result": -0.226}
